Measured values collected from several papers.
± gives the spread as reported.
Cell line: HaCaT

| SMILES | assay | setting | endpoint | result |
| --- | --- | --- | --- | --- |
| Oc1cc2c3c(c1)COc1cc(O)cc(c1-3)CC2 | cell growth or viability, MTT | 48 h | IC50 | 58.8 µM |
| CCOP(=O)(OCC)C(Cc1ccccc1F)Nc1ccc(Cl)cc1 (stereo not shown) | cell growth or viability, MTT | 48 h | IC50 | > 100 µM |
| CSCC[C@H](NC(=O)[C@@H]1CCCN1)C(=O)N[C@@H](CCCNC(=N)N)C(=O)O | CCK-8 | 100 µg/mL, 72 h, 0.4 % serum | viability | 131 ± 3.74% |
| CCCCCCCCCCCCCCCCCC(=O)N[C@@H](CCCNC(=N)N)C(=O)N[C@@H](CCCNC(=N)N)C(=O)N[C@@H](CCCNC(=N)N)C(=O)N[C@@H](CCCNC(=N)N)C(=O)N[C@@H](CCCNC(=N)N)C(N)=O | cytotoxicity | – | IC50 | > 150 µg/mL |
| O=C1c2ccc(O)cc2OC1(O)Cc1ccc(O)c(O)c1 (stereo not shown) | cell growth or viability, MTT | 72 h | IC50 | > 400 µM |
| Cc1c(C)c(C)[c-](C)c1C.[C-]#[O+].[C-]#[O+].[C-]#[O+].[Cl-].[Cl-].[Cl-].[Ir+3].[Re+].c1cnc(-c2ncccn2)nc1 | cell growth or viability, MTT | 48 h | IC50 | 235 µM |
| CCOP(=O)(OCC)C(Cc1c(F)c(F)c(Sc2ccc(OC)cc2)c(F)c1F)Nc1ccccc1 (stereo not shown) | cell growth or viability, MTT | 48 h | IC50 | 19.8 µM |
| CCCCCCCCCCCCCCCC(=O)N[C@@H](CCCCN)C(=O)N[C@@H](CCCCN)C(=O)N[C@@H](CCCCN)C(=O)N[C@@H](CCCCN)C(=O)N[C@@H](CCCCN)C(N)=O | cytotoxicity | – | IC50 | 17.6 µg/mL |
| CC1(C)C=Cc2c(O)cc(/C=C/c3ccc(O)cc3O)cc2O1 | cell growth or viability, MTT | 72 h | IC50 | 80 µM |
| CCn1cc(/C=C/c2ccc3ccccc3[n+]2CC)c2ccccc21 | cell growth or viability, MTT | 24 h | IC50 | 1.74 µM |
| CCCCCCCCCC(=O)N[C@@H](Cc1ccccc1)C(=O)N[C@@H](Cc1ccccc1)C(=O)N[C@@H](Cc1ccccc1)C(=O)N[C@@H](Cc1ccccc1)C(=O)N[C@@H](CCCCN)C(=O)N[C@@H](CCCCN)C(=O)N[C@@H](CCCCN)C(=O)N[C@@H](CCCCN)C(=O)N[C@@H](CCCCN)C(N)=O | cytotoxicity | – | IC50 | > 150 µg/mL |
| CCOP(=O)(OCC)C(Cc1ccc(F)cc1)Nc1ccc(Cl)cc1 (stereo not shown) | cell growth or viability, MTT | 48 h | IC50 | > 100 µM |
| CCCCN(CCCC)CC(O)COc1c2ccoc2c(OC)c2oc(CC)cc(=O)c12 (stereo not shown) | – | 25 µM, 72 h | LDH release | 6.8% |

A few entries again:
| SMILES | assay | setting | endpoint | result |
| --- | --- | --- | --- | --- |
| Oc1cc2c3c(c1)COc1cc(O)cc(c1-3)CC2 | cell growth or viability, MTT | 48 h | IC50 | 58.8 µM |
